Published values pooled from the literature.
Lines come from different studies, so protocols differ. “And” joins repeats or separate records; there may be more than shown. Numbers after ± are the reported error.

CO[C@H]1C[C@@H]2CC[C@@H](C)[C@@](O)(O2)C(=O)C(=O)N2CCCC[C@H]2C(=O)O[C@H]([C@H](C)C[C@@H]2CC[C@@H](OC(=O)NCCOCCOCCOCCOCCOCCOCCOCCOCCC(=O)N3CCc4cc(Cn5nc(-c6ccc7oc(N)nc7c6)c6c(N)ncnc65)ccc4C3)[C@H](OC)C2)C[C@@H](O)[C@H](C)/C=C(\C)[C@@H](O)[C@@H](OC)C(=O)[C@H](C)C[C@H](C)/C=C/C=C/C=C/1C — incidence of Headache TRAE (patients with advanced solid tumours; intravenous, dose not given, grade ≥3): 0%
CC[C@H]1[C@@H](O)[C@@H]2[C@H](CC[C@]3(C)[C@@H]([C@H](C)CCNC(=O)NS(=O)(=O)c4ccc(C(C)(C)C)cc4)CC[C@@H]23)[C@@]2(C)CC[C@@H](O)C[C@@H]12 — subjects with QT prolongation (human; dose not given, related to compound and quinidine): 8.3%
CCC[C@@](N)(CO)CCc1ccc(OCCCCCC(C)C)cc1 — half-life (hound dogs, male; oral, 20 mg/kg, capsule, fed state, median): 15.2 h
CC(C)[C@@H]1CC[C@@H](C)C[C@@H]1O — creatinine (acute oral toxicity OECD; Swiss albino mice, serum; oral, 300 mg/kg): 0.94 ± 0.06 mg/dL
COc1ccc(-c2c(-c3ccc(C#N)c(F)c3)nc(N3CCC(N)CC3)n(C)c2=O)cc1F — serious adverse event incidence (item: Pyrexia; human patients; oral, dose not given, dose escalation, NG): 2%
Cc1c(COC(=O)[C@@H]2[C@H](/C=C(\Cl)C(F)(F)F)C2(C)C)cccc1-c1ccccc1 (racemic) — CLint (pooled human liver microsomes): 0.0859 mL/min/mg protein
CC(C)C[C@@H]1NC(=O)CNC(=O)[C@H](CC(N)=O)NC(=O)[C@H](CCCNC(=N)N)NC(=O)[C@H]([C@@H](C)O)NC(=O)[C@@H]2CSSC[C@@H]3NC(=O)[C@H]([C@@H](C)O)NC(=O)[C@H](CCCCN)NC(=O)CNC(=O)[C@H](C(C)C)NC(=O)[C@@H]4CSSC[C@H](NC(=O)[C@H]([C@@H](C)O)NC(=O)[C@H](CSSC[C@H](NC(=O)[C@H](C(C)C)NC(=O)[C@@H]5CCCN5C1=O)C(=O)NCC(=O)N[C@@H](CCC(=O)O)C(=O)N[C@@H]([C@@H](C)O)C(=O)N4)NC(=O)CNC(=O)[C@@H]1CCCN1C(=O)[C@H]([C@@H](C)O)NC(=O)[C@H](CC(N)=O)NC3=O)C(=O)N[C@@H](CO)C(=O)N[C@@H](Cc1c[nH]c3ccccc13)C(=O)N1CCC[C@H]1C(=O)N[C@@H](C(C)C)C(=O)N2 — remaining peptide (HPLC; ammonium bicarbonate 0.1 M; 180 µM, 14 days, pH 9.0, 37 °C, deamidation stability): 51.9 ± 7.3%
C[C@@H](NC(=O)N1C(=O)[C@H](Cc2ccnc(N)c2)[C@H]1C(=O)O)C1CCCCC1 — decreased neutrophil (healthy Chinese adult volunteers; continuous intravenous infusion, dose not given, 5.0 days, CTCAE 5.0, all doses): 0%
CC[C@H](C)[C@H](NC(=O)[C@H](Cc1ccccc1)NC(=O)[C@H](CCC(=O)O)NC(=O)[C@H](CCCNC(=N)N)NC(=O)[C@H](C)NC(=O)[C@H](C)NC(=O)[C@H](CCC(N)=O)NC(=O)[C@H](CCC(=O)O)NC(=O)[C@H](CCC(=O)O)NC(=O)[C@H](CC(C)C)NC(=O)[C@H](Cc1ccc(O)cc1)NC(=O)[C@H](CO)NC(=O)[C@H](CO)NC(=O)[C@@H](NC(=O)[C@H](CC(=O)O)NC(=O)[C@H](CO)NC(=O)[C@@H](NC(=O)[C@H](Cc1ccccc1)NC(=O)[C@@H](NC(=O)CNC(=O)[C@H](CCC(=O)O)NC(=O)[C@H](C)NC(=O)CCc1cnc[nH]1)[C@@H](C)O)[C@@H](C)O)C(C)C)C(=O)N[C@@H](C)C(=O)N[C@@H](Cc1c[nH]c2ccccc12)C(=O)N[C@@H](CC(C)C)C(=O)N[C@H](C(=O)N[C@@H](CCCNC(=N)N)C(=O)NCC(=O)N[C@@H](CCCNC(=N)N)C(=O)N[C@@H](CCCCNC(=O)COCCOCCNC(=O)COCCOCCNC(=O)CC[C@H](NC(=O)CCCCCCCCCCCCCCCCC(=O)O)C(=O)O)C(=O)NCC(=O)NCC(=O)N[C@@H](CO)C(=O)N[C@@H](CCCCNC(=O)[C@H](CCCCNC(=O)[C@H](CCCCNc1c(NCCCCCN(O)C(=O)CCC(=O)NCCCCCN(O)C(=O)CCC(=O)NCCCCCN(O)C(C)=O)c(=O)c1=O)Nc1c(NCCCCCN(O)C(=O)CCC(=O)NCCCCCN(O)C(=O)CCC(=O)NCCCCCN(O)C(C)=O)c(=O)c1=O)NC(=O)[C@H](CCCCNc1c(NCCCCCN(O)C(=O)CCC(=O)NCCCCCN(O)C(=O)CCC(=O)NCCCCCN(O)C(C)=O)c(=O)c1=O)Nc1c(NCCCCCN(O)C(=O)CCC(=O)NCCCCCN(O)C(=O)CCC(=O)NCCCCCN(O)C(C)=O)c(=O)c1=O)C(=O)O)C(C)C [zirconium-89 labelled] — tissue uptake (ex vivo gamma counting; male Sprague-Dawley rats, intestine; intravenous, 1 nmol, 24 h): 0.412 %ID/g
C[C@]1(CO)Cc2ncn(-c3ccc(C#N)c(Cl)c3)c2C(=O)O1 — drug-related Dizziness incidence (Japanese subjects; dose not given, all doses total): 5.6%
C=C(CN(C(=O)c1c(C(F)F)nn(C)c1F)C1CC1)c1ccc(Cl)cc1Cl — mortality (static acute toxicity test; zebrafish (Brachydanio rerio); 0.482 mg a.i./L, 6 h): 0%
CC[C@H](C)[C@H](NC(=O)[C@H](Cc1ccc(O)cc1)NC(=O)[C@@H]1CCCN1C(=O)[C@H](CCCNC(=N)N)NC(=O)[C@@H](N)CCCNC(=N)NC(=O)NCCOCCOCCNC(=O)CCCCCN1\C(=C/C=C/C=C/C2=[N+](CCCCS(=O)(=O)[O-])c3ccccc3C2(C)C)C(C)(C)c2ccccc21)C(=O)N[C@@H](CC(C)C)C(=O)O — fluorescence quantum yield (PBS with 1% BSA; reference: cresyl violet perchlorate): 55%
COc1cccc(Oc2ccccc2NC(=O)CNC(=O)c2cccc3ccccc23)c1 — eosinophils (esterase-deficient SCID mice, male, blood; oral, 40 mg/kg/day, 14 days, toxicity study; reference: white cells): 1.6% and 0%
Cc1nonc1Cn1nnc2c(N3CC[C@H](O)C3)nc(C(C)(C)C)nc21 — dose-normalised AUC(0-inf) (C57BL/6 mice; oral, 2.8 mg/kg): 248 kg·ng·h/mL/mg
c1csc(-c2ccc(-c3cccs3)s2)c1 — food intake (C57BL/6J mice, diet-induced obese; intraperitoneal, 5 mg/kg daily, 14 days; reference: vehicle): no effect
CSCC[C@@H]1NC(=O)[C@H](Cc2c[nH]c3ccccc23)NC(=O)[C@@H](NC(=O)CCNC(=O)[C@H](CCC(N)=O)NC(=O)[C@@H]2CCCN2C(=O)[C@@H]2CCCN2C(=O)[C@H](CCCNC(=N)N)NC(=O)[C@H](CCCNC(=N)N)NC(=O)[C@H](CCCNC(=N)N)NC(=O)[C@H](CCC(N)=O)NC(=O)[C@H](CCCNC(=N)N)NC(=O)[C@H](CCCNC(=N)N)NC(=O)[C@H](CCCCN)NC(=O)[C@H](CCCCN)NC(=O)[C@H](CCCNC(=N)N)NC(=O)CN)CSSC[C@@H](C(=O)O)NC(=O)[C@H]([C@@H](C)O)NC(=O)CNC(=O)[C@H](CC(C)C)NC(=O)[C@H](Cc2c[nH]cn2)NC(=O)[C@H](CCCNC(=N)N)NC(=O)[C@@H]2CCCN2C(=O)[C@H](CO)NC1=O — elimination rate constant (competitive EIA; human, plasma; 70 mg, median and quartile range): 0.5 ± 0.17 h⁻¹
COc1cc2c(cc1OC)CN(CCc1ccc(NC(=O)c3cccc4c(=O)c5cccc(OC)c5[nH]c34)cc1)CC2 — elimination rate constant (CD-1 mouse, male, plasma; intraperitoneal, 10 mg/kg): 0.0497 h⁻¹
CC(C)[C@H](O)C(=O)N[C@H]1Cc2ccc3c(c2)[C@]2(C4=C(c5nc(CO)co5)N=C(O4)[C@H](C(C)(C)C)NC1=O)c1cc(F)ccc1N[C@@H]2O3 — terminal half-life (NSG mice, brain; intravenous, 10 mg/kg, single dose at MTD, with: paclitaxel 40 mg/kg): 17.4 h
CN1CC[C@@H](c2c(O)cc(O)c3c(=O)cc(-c4ccc(C(F)(F)F)cc4Cl)oc23)[C@@H]1CO — patients with adverse event (item: Epistaxis; B-cell malignancies or AML; oral, 100 mg, continuous dosing): 0%
Cc1cc(C)c(CNC(=O)c2cc(Cl)c3c(c2C)O[C@@](C)([C@H]2CC[C@H](N(C)C)CC2)O3)c(=O)[nH]1 — incidence of Pneumocystis jirovecii pneumonia (relapsed/refractory NHL patients; dose not given, trial, safety set, treatment-related TEAE grade 5): 0%
C[C@]1(O)C[C@@](N)(c2ccc(-c3nc4n(c3-c3ccccc3)COc3ccncc3-4)cc2)C1 — patients with TEAE (human, advanced or metastatic solid tumours; 28 mg intermittent, phase I dose escalation): 100%
Clc1cc(Cl)c(-c2cc(Cl)c(Cl)c(Cl)c2Cl)cc1Cl — literature range factor (polyethylene-water partitioning; PCB compilation; reference: maximum over minimum K): 17
CN1CCN(c2ccc(Nc3nccc(-c4cccc(C#N)c4)n3)cc2C(F)(F)F)CC1 — toxicity (Danio rerio embryos; 5 µM, 5 d): 0%
COc1cc2c(Oc3ccc4[nH]c(C)cc4c3F)ccnc2cc1OCC1(N)CC1 — grade 3 Dizzy (paediatric recurrent refractory sarcoma; 12 mg): 0%
Cc1cccc(Cn2nc(C3CC3)c3c(NC(=O)c4cnc5cc(OCCN6CCN(C)CC6)ccn45)cccc32)n1 — adverse events incidence (item: Pruritus; human advanced solid tumours; oral, 400 mg, all-causality): 0%
O=C(O)CCC(CP(=O)(O)O)C(=O)O (centres unmarked) — relative error (rat, plasma; 4 µg/mL, 28 days, -80 °C, long-term stability; reference: nominal concentration): -7.14%
CNC(=O)c1cc(Oc2ccc(NC(=O)Nc3cc(C(C)(C)C)nn3-c3ccc4ncccc4c3)c(F)c2)ccn1 — related SAE (pulmonary oedema, NCI CTC v3.0; human patients; oral, all dose levels): 2%
CN[C@H]1CC[C@@H](c2ccc(Cl)c(Cl)c2)c2ccccc21 — Tmax (CD-1 mouse, male, plasma; intraperitoneal, 10 mg/kg): 0.5 h
O=C(O)CCCOc1ccc(F)cc1-c1cc(-c2ccccc2C(F)(F)F)n(-c2ccccc2)n1 — organ weight (female Crl:CD(SD) rats, thymus; intravenous, 25 µg/kg, 1 d): 0.52 ± 0.09 g
Clc1ccc(Cl)c(-c2cc(Cl)ccc2Cl)c1 — body weight (Sprague Dawley rat; intraperitoneal, 10 mg/kg, 3 weeks): 173 g
Nc1ccc2cc3ccc(N)cc3nc2c1 — AUC(0-t) (male CD-1 mouse, lungs; intravenous, 15 mg/kg): 27500 ng·h/mL
O=C1Nc2cc3[nH]nc(-c4ccncc4)c3cc2CN1Cc1ccccc1 — patients with increased GGT (CTCAE v4.03; advanced solid tumour patients; intravenous, 4.8 mg/kg, schedules 1/2): 0%
Clc1cc(Cl)c(-c2cc(Cl)ccc2Cl)c(Cl)c1 — log K(PDMS-water) (fresh water; 20 °C, S30-1 sampler, 30 µm): 6.03 ± 0.04
N=c1c2c(-c3ccccc3)c(-c3ccccc3)n(Cc3ccccc3)c2ncn1[C@H]1CC[C@H](O)CC1 — unchanged drug excreted in urine (Sprague-Dawley rat, male, urine; intravenous, 2 mg/kg; reference: dose): < 1%
CC[C@H](C)[C@H](NC(=O)[C@H](CC(C)C)NC(=O)[C@H](Cc1c[nH]c2ccccc12)NC(=O)[C@H](CCC(N)=O)NC(=O)[C@@H](NC(=O)[C@H](Cc1ccccc1)NC(=O)[C@H](C)NC(=O)[C@H](CCCCNC(=O)COCCOCCNC(=O)COCCOCCNC(=O)CC[C@H](NC(=O)CCCCCCCCCCCCCCCCCCC(=O)O)C(=O)O)NC(=O)[C@H](CCC(N)=O)NC(=O)[C@H](C)NC(=O)[C@@H](NC(=O)[C@H](CCCCN)NC(=O)[C@H](CC(=O)O)NC(=O)[C@H](CC(C)C)NC(=O)C(C)(C)NC(=O)[C@@H](NC(=O)[C@H](CO)NC(=O)[C@H](Cc1ccc(O)cc1)NC(=O)[C@H](CC(=O)O)NC(=O)[C@H](CO)NC(=O)[C@@H](NC(=O)[C@H](Cc1ccccc1)NC(=O)[C@@H](NC(=O)CNC(=O)[C@H](CCC(=O)O)NC(=O)C(C)(C)NC(=O)[C@@H](N)Cc1ccc(O)cc1)[C@@H](C)O)[C@@H](C)O)[C@@H](C)CC)[C@@H](C)CC)C(C)C)C(=O)N[C@@H](C)C(=O)NCC(=O)NCC(=O)N1CCC[C@H]1C(=O)N[C@@H](CO)C(=O)N[C@@H](CO)C(=O)NCC(=O)N[C@@H](C)C(=O)N1CCC[C@H]1C(=O)N1CCC[C@H]1C(=O)N1CCC[C@H]1C(=O)N[C@@H](CO)C(N)=O — Vz/F (human, plasma; subcutaneous, 10 mg, week 8, geometric mean): 6.04 L
Cc1ccc2c(c1)C(=O)C1(O)CCN(c3ccccc3)C1=N2 (centres unmarked) — parent remaining (aqueous solution; 24 h, kept in dark): > 99%
O[C@H]1CCCN[C@@H]1CCCn1cnc2c(Cl)c(Cl)ccc21 — median Cmax,ss (healthy CYP2D6 intermediate metabolizers, plasma; oral, 150 mg multiple doses): 385 ng/mL
Clc1cc(Cl)c(-c2c(Cl)cc(Cl)cc2Cl)c(Cl)c1 — log K(PDMS-water) (fresh water; 20 °C): 6.6 ± 0.05
NC(=O)[C@H]1CCN(c2ncnc(N)c2F)C[C@@H]1N1CCC[C@@H](Nc2cc(Cl)cc(C(F)(F)F)c2)C1=O — grade ≥3 hypocalcaemia (B-cell malignancy patients; oral, 41 mg twice daily, dose): 10%
Clc1ccc(-c2ccc(Cl)c(Cl)c2Cl)cc1Cl — literature range factor (PDMS-water partitioning; PCB compilation; reference: maximum over minimum K): 1.1
COc1ccnc(C(=O)N[C@H]2COC(=O)[C@H](Cc3ccccc3)[C@@H](OC(=O)C(C)C)[C@H](C)OC2=O)c1OCOC(=O)C(C)C — LC50 (rat; inhalation, nose only, 4 h, highest attainable concentration): > 0.53 µg/mL

Repeated from above:
Clc1cc(Cl)c(-c2cc(Cl)ccc2Cl)c(Cl)c1 — log K(PDMS-water) (fresh water; 20 °C, S30-1 sampler, 30 µm): 6.03 ± 0.04
N=c1c2c(-c3ccccc3)c(-c3ccccc3)n(Cc3ccccc3)c2ncn1[C@H]1CC[C@H](O)CC1 — unchanged drug excreted in urine (Sprague-Dawley rat, male, urine; intravenous, 2 mg/kg; reference: dose): < 1%
